{"data": "Assay results pooled from the literature", "note": "Numbered parts are unrelated; each lists some results of a single study."}
{"data": "Block 1", "target": "Histone acetyltransferase KAT6A, winged helix 1, GST fusion (KAT6A, Homo sapiens, UniProt Q92794, residues 1-85)", "technique": "protein binding microarray", "molecule type": "double-stranded DNA, one strand shown", "sample": "in vitro", "tested at": "not given", "notes": "8-mer, flanks averaged, mean of 2 arrays, mostly near background", "reference": "not given", "direction": "higher = stronger binding", "Target sequence (chain)": "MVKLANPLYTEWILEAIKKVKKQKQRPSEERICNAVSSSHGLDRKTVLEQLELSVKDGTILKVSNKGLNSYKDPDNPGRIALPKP"}
{"Sequence": "GCGCGGCC", "E-score": 0.454}
{"Sequence": "AGCAGCGC", "E-score": 0.249}
{"Sequence": "CACTAGTG", "E-score": -0.101}
{"Sequence": "AAAGCCCG", "E-score": 0.257}
{"Sequence": "ATAACGGC", "E-score": 0.368}
{"Sequence": "CTCGGATA", "E-score": 0.121}
{"Sequence": "CAAATCGA", "E-score": -0.239}
{"Sequence": "AATGCATT", "E-score": -0.25}
{"Sequence": "GTAACTAC", "E-score": 0.064}
{"Sequence": "CTGCTACC", "E-score": -0.122}
{"Sequence": "AGAATTCC", "E-score": -0.118}
{"Sequence": "CGAACATA", "E-score": -0.103}
{"data": "Block 2", "target": "Sal-like protein 4, full length isoform B (SALL4, Homo sapiens, UniProt Q9UJQ4-2, residues 1-616)", "technique": "universal PBM", "molecule type": "double-stranded DNA, one strand shown", "sample": "in vitro", "tested at": "not given", "notes": "8-mer, flanks averaged, mean of replicates", "direction": "higher = stronger binding"}
{"Sequence": "AACAAGTT", "E-score": 0.101}
{"Sequence": "AGCAACCC", "E-score": -0.194}
{"Sequence": "GACGTGCA", "E-score": 0.0733}
{"Sequence": "CACTATGG", "E-score": 0.106}
{"Sequence": "CCACTATC", "E-score": -0.114}
{"Sequence": "CGCGTTGA", "E-score": -0.173}
{"Sequence": "AAATCTAG", "E-score": 0.0394}
{"Sequence": "GCGCCGAC", "E-score": -0.182}
{"Sequence": "AGGTTCAT", "E-score": -0.039}
{"Sequence": "ACCCAAAG", "E-score": -0.0499}
{"Sequence": "AGTGAAGG", "E-score": -0.0284}
{"Sequence": "TCGGCGCA", "E-score": -0.23}
{"Sequence": "AGGATCGG", "E-score": -0.233}
{"data": "Block 3", "target": "RNA binding protein fox-1 homolog 2, RRM domain, GST-SBP tag (RBFOX2, Homo sapiens, UniProt O43251-10, residues 100-194)", "technique": "RNA Bind-n-Seq", "molecule type": "RNA", "sample": "in vitro", "tested at": "365 nM", "notes": "natural RNA segment, single round, ends assumed", "reference": "no-protein control", "direction": "higher = stronger binding", "Target sequence (chain)": "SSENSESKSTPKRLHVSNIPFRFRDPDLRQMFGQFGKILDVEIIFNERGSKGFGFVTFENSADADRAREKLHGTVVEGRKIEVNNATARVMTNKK"}
{"Sequence": "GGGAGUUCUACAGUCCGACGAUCUACCUGCAUAUCUUCUUAAAAGAAAUAGCUGUUAUUAAUGCCUUUUUGUUUUCCAUUGAGUGUACACUACUGAAUAAGUGUAGGAGUUUUAUGUUUACCAUGUGAGUCCUUGGAAUUCUCGGGUGCCAA", "RBNS enrichment (R)": 0.611}
{"Sequence": "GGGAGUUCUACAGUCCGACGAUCGAAGCCUCUGGGAACUCCUCCUGUGGCCACCACCAAAGGAUGAGGAAUCUGAGUUGCCAACUUCAGGACGACACCUGGCUUGCCACCCACAGUGCACCACAGGCCAACCUUGGAAUUCUCGGGUGCCAA", "RBNS enrichment (R)": 0.222}
{"Sequence": "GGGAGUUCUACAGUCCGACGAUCUCCUCAUCCCUUCAGCAAUAUGUAUUUGAGUUCACACUAUUUCUGUUUUACAGCAGUUUUGAAAAACACAUACUAUGCCACCAAUUGUCAUAUUAUUUUUAGAUGAUGUAUGGAAUUCUCGGGUGCCAA", "RBNS enrichment (R)": 0.382}
{"Sequence": "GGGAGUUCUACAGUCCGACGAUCUCCUUGUAAGUUGGAAAGAAUGUUUAUUUAACAGAUCUUGUAUUACAUUUAUUUCCCCCUGAUGUGGAAAAUCUAAAAGCACAGAAUGAUGGGAACAAGAGUAUGAUGUGUGGAAUUCUCGGGUGCCAA", "RBNS enrichment (R)": 2.07}
{"Sequence": "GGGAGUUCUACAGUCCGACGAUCGUGGGCCUGGUAGCACAUGUCUGUCCUCAGCCGGACAGAUGCUUUCUCUCCUGGUUUGCAGCUGUCUUCAAAUCCCCCCAUGACCCGCUCUUCCCACUCCUUCAAGUUGCUGGAAUUCUCGGGUGCCAA", "RBNS enrichment (R)": 0.342}
{"Sequence": "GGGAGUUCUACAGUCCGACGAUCAAGUAUUAAUGAGUAUUUCCUUUCUCCAUAAGUGCAGGACUGUUACUCACUACUAAACUCUACCAAGAAUGGAAACAAAGAAUAUUUUCUGAAGAUUUUUUUGAAGAUUAUGGAAUUCUCGGGUGCCAA", "RBNS enrichment (R)": 0.529}
{"Sequence": "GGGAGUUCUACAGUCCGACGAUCGAUUCUGACUUUUUUAAAAAUUCUUUUCUAAUUAUUGUAAAAAGUAUAUUAUAUCUUAAGUCAGUUUCCGUGGCAUCUACUGAAUAAAAAUUCAGCAGAUCUCCUUUCUAUGGAAUUCUCGGGUGCCAA", "RBNS enrichment (R)": 0.435}
{"Sequence": "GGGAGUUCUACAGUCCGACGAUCCAGACAGCCGCCUCUAGGGGCUGGGUUCUGCUGGGGCCUCCUUGUUGGUGCUGUAGGCACCCGCCAGGGAGCAGGGACCCGACUUGCAGACGCAUUGCCCGGUACUAGGAUGGAAUUCUCGGGUGCCAA", "RBNS enrichment (R)": 0.26}
{"data": "Single results of other studies"}
{"Molecule": "PhoQ, residues 284 288 289 292 302 303 GNNTDL", "target": "PhoP, residues 12 14 15 18 19 NQFFI (Escherichia coli, UniProt P23836)", "test": "Sort-seq, refers to: YFP reporter", "system": "E. coli", "conditions": "PhoQ-PhoP variant library, added: 10 µM Mg2+", "scale": "reference: high Mg2+ state, higher = stronger signaling", "quantity": "fold induction", "result": 6.18}
